Results collected from several papers.
Each numbered part is a random draw from the data of one study; scales do not carry over between parts. Positions count from the first letter of the parent shown.
Chain of UniProt P22455 (whole entry, looked up): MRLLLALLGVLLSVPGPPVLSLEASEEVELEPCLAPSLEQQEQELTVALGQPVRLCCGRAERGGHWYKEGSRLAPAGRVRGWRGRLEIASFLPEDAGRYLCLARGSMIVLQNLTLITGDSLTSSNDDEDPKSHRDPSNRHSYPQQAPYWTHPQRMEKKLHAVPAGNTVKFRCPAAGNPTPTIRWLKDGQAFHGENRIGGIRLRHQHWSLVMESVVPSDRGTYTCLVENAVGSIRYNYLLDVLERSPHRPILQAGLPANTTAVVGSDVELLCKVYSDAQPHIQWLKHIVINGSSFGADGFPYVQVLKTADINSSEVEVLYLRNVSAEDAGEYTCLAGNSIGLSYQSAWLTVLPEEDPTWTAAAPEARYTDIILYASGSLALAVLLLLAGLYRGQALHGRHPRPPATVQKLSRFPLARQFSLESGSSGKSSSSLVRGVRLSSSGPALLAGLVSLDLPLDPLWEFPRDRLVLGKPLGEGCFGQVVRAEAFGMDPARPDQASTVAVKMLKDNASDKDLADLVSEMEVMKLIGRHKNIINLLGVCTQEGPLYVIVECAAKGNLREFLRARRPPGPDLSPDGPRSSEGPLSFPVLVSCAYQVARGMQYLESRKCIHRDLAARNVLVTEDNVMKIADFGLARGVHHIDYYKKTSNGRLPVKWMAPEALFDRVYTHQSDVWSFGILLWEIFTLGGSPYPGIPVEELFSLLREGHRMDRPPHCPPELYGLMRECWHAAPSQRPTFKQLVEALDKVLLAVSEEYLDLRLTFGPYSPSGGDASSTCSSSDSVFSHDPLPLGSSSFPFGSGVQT

Study 1 — target: tungstate, free oxyanion; method: microfluidic competitive inhibition; matrix: in vitro, cell-free expressed; tested at: not given; direction: lower = stronger binding
Setting: derived from inhibition constants, unchanged parent 2230 nM
Parent: PafA, mature enzyme, eGFP fusion (Elizabethkingia meningoseptica, UniProt Q9KJX5); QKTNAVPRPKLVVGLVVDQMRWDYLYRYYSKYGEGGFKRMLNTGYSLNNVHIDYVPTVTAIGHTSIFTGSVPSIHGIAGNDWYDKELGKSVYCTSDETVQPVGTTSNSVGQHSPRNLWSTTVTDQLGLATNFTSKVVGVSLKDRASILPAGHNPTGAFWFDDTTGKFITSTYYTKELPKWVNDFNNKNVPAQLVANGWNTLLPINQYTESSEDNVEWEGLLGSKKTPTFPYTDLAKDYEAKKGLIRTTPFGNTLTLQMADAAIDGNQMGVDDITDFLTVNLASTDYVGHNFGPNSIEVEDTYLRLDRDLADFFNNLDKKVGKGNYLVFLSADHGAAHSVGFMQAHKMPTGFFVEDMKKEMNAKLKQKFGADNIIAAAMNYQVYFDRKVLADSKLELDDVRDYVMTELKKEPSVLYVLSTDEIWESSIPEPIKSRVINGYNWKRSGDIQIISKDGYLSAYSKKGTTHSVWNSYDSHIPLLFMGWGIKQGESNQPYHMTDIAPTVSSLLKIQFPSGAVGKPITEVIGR
Substitution | oxyanion analog dissociation constant [nM]
S211G | 2290
A195V | 2290
R8V | 2310
L193G | 2120
D401G | 2420
N214V | 2630
P230V | 2220
Q487G | 2090

Study 2 — target: CCND2, cyclin fold, Cln2 fusion (human); method: yeast growth competition, sequencing; matrix: yeast; setting: weak parent motif; reference: not given; direction: higher = stronger binding; parent: viral docking peptide; TSVRRALFTGGSD
Substitution | normalised enrichment score
V3S | -0.113
L7H | 0.259
F8G | 0.0802
G11H | -0.0306
S12N | 0.0646
R4I | 0.0716
S2R | -0.248
F8I | -0.131

Study 3 — effect on: binding; method: phage display NGS; form: peptide; tested at: concentration not given; setting: panning round 2; reference: input library
Target: UDP-N-acetylglucosamine--peptide N-acetylglucosaminyltransferase 110 kDa subunit (OGT, Homo sapiens, UniProt O15294)
Residues (O15294 1-1046): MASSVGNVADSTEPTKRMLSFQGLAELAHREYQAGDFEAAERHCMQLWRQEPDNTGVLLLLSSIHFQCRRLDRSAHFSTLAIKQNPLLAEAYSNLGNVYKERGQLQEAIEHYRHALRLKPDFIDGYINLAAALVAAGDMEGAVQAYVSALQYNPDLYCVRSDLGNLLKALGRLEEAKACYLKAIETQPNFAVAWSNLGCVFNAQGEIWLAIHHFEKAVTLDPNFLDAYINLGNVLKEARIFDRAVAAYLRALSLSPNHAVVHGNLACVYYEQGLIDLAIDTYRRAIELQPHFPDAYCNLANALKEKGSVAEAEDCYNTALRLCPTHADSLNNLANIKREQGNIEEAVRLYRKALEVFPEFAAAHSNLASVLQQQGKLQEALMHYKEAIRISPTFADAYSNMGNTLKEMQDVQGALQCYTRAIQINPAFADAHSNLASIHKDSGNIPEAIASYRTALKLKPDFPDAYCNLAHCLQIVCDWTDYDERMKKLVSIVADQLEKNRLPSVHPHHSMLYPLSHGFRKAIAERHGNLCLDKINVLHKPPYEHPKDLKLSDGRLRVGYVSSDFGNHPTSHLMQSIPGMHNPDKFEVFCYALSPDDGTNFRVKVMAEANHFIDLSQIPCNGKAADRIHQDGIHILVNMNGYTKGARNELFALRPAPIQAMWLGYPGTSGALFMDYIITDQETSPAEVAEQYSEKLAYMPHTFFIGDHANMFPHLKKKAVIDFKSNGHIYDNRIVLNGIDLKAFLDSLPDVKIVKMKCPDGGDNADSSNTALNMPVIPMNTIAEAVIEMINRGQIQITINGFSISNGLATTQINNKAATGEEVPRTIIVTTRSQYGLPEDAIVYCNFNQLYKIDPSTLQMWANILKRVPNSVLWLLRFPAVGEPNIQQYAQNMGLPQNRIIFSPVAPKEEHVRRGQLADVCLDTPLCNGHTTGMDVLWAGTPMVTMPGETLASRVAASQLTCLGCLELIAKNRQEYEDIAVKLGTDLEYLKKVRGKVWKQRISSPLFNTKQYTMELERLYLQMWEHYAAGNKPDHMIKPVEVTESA
Sequence | enrichment fold change
VKTYEPFYLIDMNRQ | 3.68
HPTAHYHHQAIRHFQ | 3.93
IHAGLEPKYQISYTY | 101
QVFWPQYQINIPKLN | 14.2
HPHGHRNTAISWTAM | 4.59
MFMPHYQIIMSATES | 91.3
HWRPHHHMGEEINV | 5.19
SNFMPFYIIQVKADT | 18.8

Mixed results
SMILES | target | test | measurement | result
COC(=O)c1cc(N(C)C(=O)c2ccn3ncc(-c4ccc(C(=O)O)cc4)c3c2)ccc1Cl | Fibroblast growth factor receptor 4 (FGFR4, Homo sapiens, UniProt P22455) | enzyme activity, inhibitor | IC50 | > 30 µM

A few entries again (study 1):
Substitution | oxyanion analog dissociation constant [nM]
S211G | 2290
A195V | 2290
R8V | 2310
